Assay results of several laboratories.
Each numbered part is a random draw from the data of one study; scales do not carry over between parts. Several values in a cell are separate wells, animals, samples, runs or records. Substitutions count along the parent as printed.
Chain of UniProt O75417 (whole entry, unmodified, looked up): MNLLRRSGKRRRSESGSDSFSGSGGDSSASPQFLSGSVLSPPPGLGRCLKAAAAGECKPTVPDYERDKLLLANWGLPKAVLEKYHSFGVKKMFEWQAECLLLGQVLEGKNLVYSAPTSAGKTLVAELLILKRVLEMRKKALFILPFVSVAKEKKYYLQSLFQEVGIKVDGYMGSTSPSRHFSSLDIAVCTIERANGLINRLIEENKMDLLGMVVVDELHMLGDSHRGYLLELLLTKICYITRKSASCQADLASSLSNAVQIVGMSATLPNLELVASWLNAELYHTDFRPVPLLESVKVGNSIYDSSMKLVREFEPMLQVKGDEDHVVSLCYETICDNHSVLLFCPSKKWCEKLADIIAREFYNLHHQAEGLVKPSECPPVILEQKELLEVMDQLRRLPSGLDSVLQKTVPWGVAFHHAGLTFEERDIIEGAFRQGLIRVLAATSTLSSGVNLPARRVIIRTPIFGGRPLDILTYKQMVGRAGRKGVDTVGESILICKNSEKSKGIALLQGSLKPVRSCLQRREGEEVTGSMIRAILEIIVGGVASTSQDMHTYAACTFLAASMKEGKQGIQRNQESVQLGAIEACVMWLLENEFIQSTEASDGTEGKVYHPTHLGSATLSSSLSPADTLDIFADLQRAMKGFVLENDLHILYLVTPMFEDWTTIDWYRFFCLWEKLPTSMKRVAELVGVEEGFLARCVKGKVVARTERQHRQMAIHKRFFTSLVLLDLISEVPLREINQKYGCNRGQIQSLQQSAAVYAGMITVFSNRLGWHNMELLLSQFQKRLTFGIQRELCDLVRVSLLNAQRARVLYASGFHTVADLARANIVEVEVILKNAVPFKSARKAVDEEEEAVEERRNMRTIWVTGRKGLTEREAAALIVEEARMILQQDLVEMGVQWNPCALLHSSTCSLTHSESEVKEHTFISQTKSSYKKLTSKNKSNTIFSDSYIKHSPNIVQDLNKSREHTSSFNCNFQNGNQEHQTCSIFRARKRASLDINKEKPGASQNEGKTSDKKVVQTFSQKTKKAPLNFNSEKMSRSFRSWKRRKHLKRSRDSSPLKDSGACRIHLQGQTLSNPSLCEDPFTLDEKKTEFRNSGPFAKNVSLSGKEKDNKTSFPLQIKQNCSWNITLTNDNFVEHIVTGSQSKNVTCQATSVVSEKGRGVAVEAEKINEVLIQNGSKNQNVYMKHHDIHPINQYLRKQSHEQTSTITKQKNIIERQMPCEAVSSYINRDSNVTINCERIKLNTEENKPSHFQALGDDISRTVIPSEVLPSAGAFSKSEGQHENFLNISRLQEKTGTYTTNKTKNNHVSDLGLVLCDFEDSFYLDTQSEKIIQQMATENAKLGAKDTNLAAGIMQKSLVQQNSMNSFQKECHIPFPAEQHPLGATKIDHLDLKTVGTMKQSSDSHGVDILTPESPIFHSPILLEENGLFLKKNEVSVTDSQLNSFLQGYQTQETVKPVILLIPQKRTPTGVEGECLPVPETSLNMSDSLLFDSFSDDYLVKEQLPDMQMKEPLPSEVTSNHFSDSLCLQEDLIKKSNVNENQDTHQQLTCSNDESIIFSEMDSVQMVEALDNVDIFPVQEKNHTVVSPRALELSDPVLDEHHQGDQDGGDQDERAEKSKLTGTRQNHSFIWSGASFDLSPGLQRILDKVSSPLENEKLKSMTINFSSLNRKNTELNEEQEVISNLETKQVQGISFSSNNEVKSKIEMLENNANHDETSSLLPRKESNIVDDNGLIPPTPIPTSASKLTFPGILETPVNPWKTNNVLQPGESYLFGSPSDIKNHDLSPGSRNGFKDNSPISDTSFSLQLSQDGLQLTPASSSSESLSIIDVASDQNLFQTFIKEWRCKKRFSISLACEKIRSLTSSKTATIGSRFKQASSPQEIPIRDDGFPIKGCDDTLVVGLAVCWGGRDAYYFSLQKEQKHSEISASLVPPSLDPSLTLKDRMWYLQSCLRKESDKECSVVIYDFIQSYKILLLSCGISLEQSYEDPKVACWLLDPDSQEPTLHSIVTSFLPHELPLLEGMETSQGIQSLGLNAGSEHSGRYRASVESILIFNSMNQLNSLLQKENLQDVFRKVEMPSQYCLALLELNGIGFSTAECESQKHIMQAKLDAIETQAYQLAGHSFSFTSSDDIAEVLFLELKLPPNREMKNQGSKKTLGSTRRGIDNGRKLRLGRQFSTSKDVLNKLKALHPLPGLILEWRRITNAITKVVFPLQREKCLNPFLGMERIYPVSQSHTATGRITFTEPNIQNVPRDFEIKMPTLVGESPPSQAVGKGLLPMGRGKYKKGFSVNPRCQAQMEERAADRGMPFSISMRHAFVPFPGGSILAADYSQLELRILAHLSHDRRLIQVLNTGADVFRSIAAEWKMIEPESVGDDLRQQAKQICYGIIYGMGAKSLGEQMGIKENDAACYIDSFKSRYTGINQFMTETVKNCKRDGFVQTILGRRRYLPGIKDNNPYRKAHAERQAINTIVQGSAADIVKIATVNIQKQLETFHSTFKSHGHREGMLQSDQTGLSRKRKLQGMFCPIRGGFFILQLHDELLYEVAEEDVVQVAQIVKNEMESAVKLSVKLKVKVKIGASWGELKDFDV
Chain of UniProt Q9BYT3 (whole entry, looked up): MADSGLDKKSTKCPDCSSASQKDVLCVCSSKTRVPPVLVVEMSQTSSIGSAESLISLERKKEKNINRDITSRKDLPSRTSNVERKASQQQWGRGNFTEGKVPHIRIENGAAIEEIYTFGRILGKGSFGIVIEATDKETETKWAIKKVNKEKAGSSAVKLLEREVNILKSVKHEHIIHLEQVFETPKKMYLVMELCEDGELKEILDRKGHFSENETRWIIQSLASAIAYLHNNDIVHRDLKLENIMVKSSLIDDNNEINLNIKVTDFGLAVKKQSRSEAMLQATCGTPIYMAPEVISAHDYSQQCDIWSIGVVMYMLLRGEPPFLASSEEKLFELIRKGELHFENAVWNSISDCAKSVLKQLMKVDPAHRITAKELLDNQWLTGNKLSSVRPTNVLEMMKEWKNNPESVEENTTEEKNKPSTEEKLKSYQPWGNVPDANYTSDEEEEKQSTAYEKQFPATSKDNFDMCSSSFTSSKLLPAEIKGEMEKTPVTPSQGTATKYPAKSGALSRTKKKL

Set 1
Target: CCNB3, cyclin fold, Cln2 fusion (human)
Technique: yeast growth competition, sequencing
Matrix: yeast
Setting: strong parent motif
Baseline: not given
Reading: higher = stronger binding
Starting sequence: viral docking peptide; KKAKRRLFTISDS
`R6A` — result for “normalised enrichment score”: 0.62.
`R5A L7A` — result for “normalised enrichment score”: -0.221.
For `I10A`, “normalised enrichment score” read 0.208.
`F8L`: “normalised enrichment score” 0.536.
For `K1A`, “normalised enrichment score” read 0.417.
For `F8A`, “normalised enrichment score” read 0.166.
`S13A` — result for “normalised enrichment score”: 0.385.
`K2A` — result for “normalised enrichment score”: 0.527.

Set 2
SMILES: CC[C@@H](C)c1nc2cc(Nc3ccnc4ccc(S(=O)(=O)C(C)C)cc34)ccc2s1.Cl
L929; CCK-8; 6.25 µM, together with: zVAD — viability: 105% and 109% and 106%.
The viability was 66.6% and 69.5% and 56.7% and 82.8% (HT-29; necroptosis protection, CCK-8; 2.5 µM, together with: TNF-α SMAC mimetic zVAD).
L929 RIPK3 knockout; 1.563 µM — viability: 101% and 100% and 107% and 102% and 96%.
HT-29; necroptosis protection, CCK-8; 0.313 µM, together with: TNF-α SMAC mimetic zVAD — viability: 14% and 21.3% and 21.7% and 25.9%.
The viability was 87.7% and 90.1% and 105% and 94.7% and 75.8% (HT-29; necroptosis protection, CCK-8; 10 µM, together with: TNF-α SMAC mimetic zVAD).
It gave 88.8% and 73.8% and 97.6% and 68.3% for viability (L929 RIPK3 knockout; 25 µM).
The viability was 104% and 111% and 108% and 105% (L929; CCK-8; 6.25 µM).
L929 RIPK3 knockout; 25 µM, together with: zVAD — viability: 92.5% and 71.1% and 69.8% and 96.5%.
It gave 79.4% and 80.2% and 84.6% and 80.7% for viability (L929; CCK-8; 25 µM, together with: zVAD).
L929; CCK-8; 1.563 µM — viability: 101% and 102% and 99.1%.
It gave 36.6% and 35.7% and 42% and 54.5% for viability (L929 RIPK3 knockout; 100 µM).
The viability was 108% and 94.7% and 114% and 102% (L929 RIPK3 knockout; 12.5 µM).

Further values, each from its own experiment
Action: inhibitor
CAMK2A: Calcium/calmodulin-dependent protein kinase type II subunit alpha (CAMK2A, Homo sapiens, UniProt Q9UQM7)
Chain of UniProt Q9UQM7 (whole entry, looked up): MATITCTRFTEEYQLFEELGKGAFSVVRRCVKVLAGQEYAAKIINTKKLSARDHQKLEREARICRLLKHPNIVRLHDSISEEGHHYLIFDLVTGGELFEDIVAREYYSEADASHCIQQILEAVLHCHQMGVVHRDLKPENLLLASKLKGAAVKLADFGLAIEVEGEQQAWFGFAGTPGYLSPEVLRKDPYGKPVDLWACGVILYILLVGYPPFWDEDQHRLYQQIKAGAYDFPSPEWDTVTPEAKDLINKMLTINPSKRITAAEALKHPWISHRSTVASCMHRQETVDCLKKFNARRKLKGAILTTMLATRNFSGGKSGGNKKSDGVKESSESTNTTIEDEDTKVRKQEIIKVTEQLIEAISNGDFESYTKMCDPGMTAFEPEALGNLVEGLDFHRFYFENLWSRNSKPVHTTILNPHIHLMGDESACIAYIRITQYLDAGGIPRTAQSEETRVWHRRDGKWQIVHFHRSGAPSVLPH
With `COc1cc2c(cc1O)C[C@@H]1NCCc3cc(OC)c(O)c-2c31` the inhibition was -21% (CAMK2A; enzyme activity; 10 µM).
With `merbromin` the Z-score was -6.34 (DNA polymerase theta, ATPase domain (POLQ, Homo sapiens, UniProt O75417); ATPase activity, ADP-Glo; 77 µM, replicate B; direction not given).
`C[C@]12CC[C@H](O)C[C@@H]1CC[C@@H]1[C@@H]2CC[C@]2(C)C(=O)CC[C@@H]12` gave an inhibition of 6% (CAMK2A; enzyme activity; 10 µM).
With `c1ccc(-c2n[nH]c3c2oc2ccccc23)cc1` the remaining activity was 96.5% (STK33 (Homo sapiens, UniProt Q9BYT3); enzyme activity, radiometric; 0.5 µM).

Excerpt of the above (further values, each from its own experiment):
`C[C@]12CC[C@H](O)C[C@@H]1CC[C@@H]1[C@@H]2CC[C@]2(C)C(=O)CC[C@@H]12` gave an inhibition of 6% (CAMK2A; enzyme activity; 10 µM).
With `c1ccc(-c2n[nH]c3c2oc2ccccc23)cc1` the remaining activity was 96.5% (STK33 (Homo sapiens, UniProt Q9BYT3); enzyme activity, radiometric; 0.5 µM).
